Published values from different studies.
Each line is one published result; not all experiments were run side by side. Values joined by “and” are separate records of one study, mostly repeats; a detail may differ. ± gives the spread as reported.

| SMILES | test | test system | conditions | scale | quantity | value |
| --- | --- | --- | --- | --- | --- | --- |
| Cc1cccc(CNC(=O)c2cn(CCNC(=O)c3ccccc3Sc3c([N+](=O)[O-])ncn3C)c3cc4c(cc3c2=O)OC(F)(F)O4)n1 |  | Sprague-Dawley rat, male, plasma | intravenous, 20 mg/kg of parent drug |  | MRT(0-inf) | 0.63 ± 0.11 h |
| Cc1c(C(=O)O)ccc2c3n(nc12)[C@@H]1[C@H](C3)N(CC2CC2)[C@@]2(C(=O)Nc3cc(Cl)ccc32)[C@H]1c1cccc(Cl)c1F |  | female BALB/c nude mice, SJSA-1 xenograft, plasma | oral, 2 mg/kg once daily |  | half-life | 17.4 h and 9 h and 36.9 h and 10.8 h and 14.1 h |
| Cc1c(-c2ccc(N3CCc4cccc(C(=O)Nc5nc6ccccc6s5)c4C3)nc2C(=O)O)cnn1CC12CC3(C)CC(C)(C1)CC(OCCNCC[C@H](O)CO)(C3)C2 |  | beagle dog, male, anaesthetised | intravenous infusion, 0.01 mg/kg/min, 120 min | reference: baseline | mean arterial pressure change | 4 mmHg |
| O=c1[nH]c(=O)n([C@@H]2O[C@H](CO)[C@@H](O)[C@@H]2F)cc1CCC[18F] |  | nude mice, RG2 tumour, skin | intravenous, dose not given, 2 h |  | biodistribution | 0.18 ± 0.15 %ID/g |
| CCc1c(-c2ccccc2)c(-c2ccccc2)nn1-c1ccccc1-c1cccc(OCC(=O)O)c1 |  | Sprague-Dawley rat | intravenous |  | Cmax/dose | 2950 kg·ng/mL/mg and 3900 kg·ng/mL/mg and 3730 kg·ng/mL/mg |
| Cn1ncnc1[C@H]1c2n[nH]c(=O)c3cc(F)cc(c23)N[C@@H]1c1ccc(F)cc1 |  | human patients, plasma | oral, 600 µg/m2/day, day 6 |  | AUCτ | 193 ± 58 ng·h/mL |
| CCO[C@H]1CCN(Cc2c(OC)cc(C)c3[nH]ccc23)[C@H](c2ccc(C(=O)O)cc2)C1 |  | human healthy controls, plasma | oral, 200 mg single dose, mean |  | unbound AUClast | 3920 ng·h/mL |
| CCCc1ccc(-c2ccc(-c3cc(F)c(F)c(F)c3)c(F)c2)cc1 |  | rat, placenta | 10 ng/mL in perfusate, low dose, mixture of 21 LCMs |  | placental accumulation | 1.47 ± 1.76 ng/g |
| O=C(Nc1ccc(OC(F)(F)Cl)cc1)c1cnc(N2CC[C@@H](O)C2)c(-c2ccn[nH]2)c1 | refers to: Amylase increase, any grade | human patients, dose-finding study | oral, sample E of sample B patients |  | patients with event | 33.3% |
| O=C(COc1ccc(Cl)cc1)NC12CC(c3nnc([C@H]4C[C@@H](OC(F)(F)F)C4)o3)(C1)C2 | refers to: Nausea | human | 200 mg once daily, 28 (unit not given) |  | adverse event incidence | 22.2% |
| COc1cc2nccc(Oc3ccc(NC(=O)c4cc5c(n(-c6ccccc6)c4=O)CCCC5=O)nc3)c2cc1OC |  | patients with relapsed/refractory AML | oral, 10 mg once daily |  | drug-related TEAEs leading to discontinuation | 14.3% |
| C[C@H](CCC(=O)NCC(=O)O)[C@H]1CC[C@H]2[C@@H]3[C@H](O)C[C@@H]4C[C@H](O[C@@H]5O[C@H](C(=O)O)[C@@H](O)[C@H](O)[C@H]5O)CC[C@]4(C)[C@H]3CC[C@]12C |  | human, plasma | baseline |  | Cmin | 17.9 ± 3.3 nM |
| N#Cc1ccc2c(c1)[C@H]1CCCN(C(=O)c3ccc4[nH]cnc4c3)[C@H]1C2 |  | human males | 80 mg, end of trial |  | SHBG level | 32.1 nmol/L |
| N[C@@H](C[18F])C(=O)O | PET imaging | female athymic nude mice, U-87 MG xenograft, tumor | intravenous, 30 min |  | tracer uptake | 1.68 ± 0.11 %ID/cc |
| CC(C)=CCC/C(C)=C/C(=O)O.Cc1cc(/C=C/C#N)cc(C)c1Nc1ccnc(Nc2ccc(C#N)cc2)n1 |  | buffer | pH 6.8, quantification limit 50 ng/mL |  | equilibrium solubility | not detected |
| CC(C)(C)C[C@@H]1COC[C@H](c2ccc(-c3ccccc3)cc2)N1 | shake-flask, LC-HRMS | aqueous buffer | 16 h, pH 6.8 |  | solubility | < 4 µM |
| O=C(/C=C/CCc1ccc(O)cc1)/C=C/c1ccc(O)cc1 |  | nude mouse MCF7 xenograft | 40 mg/kg, day 6 |  | body weight | 19.9 ± 1.19 g |
| CCCC[C@H]1CC[C@H](c2ccc(C#N)cc2)CC1 |  | Sprague-Dawley rat, female, placenta | 10 ng/mL in perfusate, 50 (unit not given), low dose, mixture of 21 LCMs |  | placental accumulation | 2.36 ± 2.93 ng/g |
| Nc1ncn([C@H]2C[C@H](O)[C@@H](CO)O2)c(=O)n1 |  | mouse plasma | 80 ng/mL, 3 months, -80 °C, long-term stability, no THU |  | mean deviation from nominal | 7.54% |
| C=CCN1CC(=O)N2[C@@H](Cc3ccc(O)cc3F)C(=O)N(Cc3cccc(N4CC(N5CCN(CC)CC5)C4)n3)C[C@@H]2N1C(=O)NCc1ccccc1 |  | advanced solid tumour patients | oral, 10 mg twice daily, grade ≥3, dose-escalation |  | treatment-related diarrhoea | 0% |
| Cc1nc(-c2ccc(OCC(C)C)c(C#N)c2)sc1C(=O)O |  | KM mouse, chronic hyperuricaemia model | dose not given, day 3 |  | body weight | 25.5 g and 29.6 g and 28 g and 28.1 g and 27.8 g and 26.1 g |
| CC(C)(C(=O)N1CCOc2c(C#N)cncc2C1)C(F)F | refers to: Dizziness | human | oral, 15 mg twice daily, 14 days, multiple ascending dose |  | subjects with adverse event | 12.5% |

| SMILES | test | test system | conditions | scale | quantity | value |
| --- | --- | --- | --- | --- | --- | --- |
| C[C@@H](Oc1ccc(S(C)(=O)=O)cc1C(=O)N1C[C@@H]2C[C@]2(c2cc(C(F)(F)F)on2)C1)C(F)(F)F |  | healthy young humans, plasma | oral, 25 mg once daily | reference: AUCtau,ss over AUC(0-inf) | linearity index | 0.843 |
| CCCCC[C@H](O)CC[C@@H]1[C@H]2Cc3cccc(OCC(=O)O)c3C[C@H]2C[C@H]1O | LC-MS/MS | Japanese PAH patients under 56.7 kg, plasma | inhaled, 54 µg |  | geometric mean AUC(0-last) | 0.85 ng·h/mL |
| C[C@@H](N)c1cc(Cl)ccc1Cn1c(=S)[nH]c(=O)c2[nH]ccc21 |  | human severe renal impairment | oral, 2.5 mg single dose |  | subjects with severe adverse events | 0% |
| CC(C)(C)c1ccc(O)c(CN(Cc2cc(C(C)(C)C)ccc2O)C2CCC(NC(N)=O)CC2)c1 (centres unmarked) |  | mouse brain | 5 ng/g, 24 h, 25 °C, short-term storage |  | recovery | 98.27 ± 0.5% |
| COc1ccc([C@@H](O)c2cc(-c3ncnc4cc(N5CCOCC5)ccc34)c(F)cc2Cl)nn1 |  | locally advanced rectal cancer | oral, 100 mg, with: capecitabine and radiotherapy |  | rectal tenesmus TEAE | 0% |
| CCc1cc(C(=O)NC)c2nccc(N3CCc4c(cc(Cn5ccnc5)cc4-c4cn(C)nc4C(F)(F)F)C3=O)c2c1 |  | Sprague Dawley rats | oral, 100 mg/kg once daily, 7 days | reference: vehicle | serum WBC change | -24% |
| O=C(Nc1cnccc1Cl)N1CCN(Cc2ccc3c(c2)OC(F)(F)O3)CC1 | refers to: Presyncope | human healthy young men | 75 mg, multiple dose |  | adverse event incidence | 0% |
| CCOc1c([C@H](C)n2nc(C)c3c(N)ncnc32)cc(Cl)c(F)c1[C@@H]1CNC(=O)C1 | refers to: QRS > 110 ms | previously treated B-cell malignancy | oral, dose not given, baseline below thresholds, all doses |  | share of patients | 1.9% |
| c1ccc(-c2ccc([C@H]3COC[C@@H](C4CCCCC4)N3)cc2)cc1 | shake-flask, LC-HRMS | aqueous buffer | 16 h, pH 6.8 |  | solubility | < 4 µM |
| Cn1cc(Nc2nc(N)nc(-c3cccc(-n4ccc5cc(C6CC6)cc(F)c5c4=O)c3CO)n2)cn1 |  | healthy humans, fed | oral tablet, 300 mg twice daily (multiple dose), 14 (unit not given) | reference: subjects | vomiting incidence | 0% |
| COc1ccc2c(c1)CN(C(=O)CCN1CCC(Cc3ccccc3)CC1)CC[S@@+]2[O-] | telemetry | conscious male beagle dogs | intravenous, 8 mg/kg, 0.5 h |  | QRS duration | 33 ± 10 ms |
| CNC(=O)c1ccc(-c2cnc3ncc(Cc4ccc5ncccc5c4)n3n2)cc1F | CTCAE v4.0, any causality | human cancer patients | oral, 600 mg twice daily, expansion cohort at RP2D |  | decreased appetite incidence (all grades) | 18% |
| C=CC(=O)Nc1cc(Nc2nccc(-c3cn(C)c4ccccc34)n2)c(OC)cc1N(C)CCN(C)C | storage stability | human plasma | 10 d, on ice, MQC level |  | recovery | 69.9% |
| Cc1ccc([C@@H]2O[C@H](CO)[C@@H](O)[C@H](O)[C@H]2O)cc1Cc1ccc(-c2ccc(F)cc2)s1 |  | Japanese type 2 diabetes patients | 200 mg, day 1, 24 h urine collection | reference: baseline | urinary potassium excretion change | 7.02 mEq |
| CC(C)n1c(Nc2cccnc2)nc2cnc(Nc3ccc(N4CCN(C)CC4)cc3)nc21 | refers to: sinus bradycardia | healthy male subjects | oral, 100 mg, study, with: itraconazole |  | subjects with adverse event | 0% |
| Cc1ccc(Sc2ccccc2N2CCNCC2)c(C)c1 | refers to: Dizziness | healthy adult men | oral, 20 mg daily, 12 days |  | participants with TEAE | 0% |
| Cn1cc([C@H]2C[C@H]3CSC(N)=N[C@@]3(c3ccc(F)cc3F)CO2)cn1 |  | male 129/SVE mouse, brain | subcutaneous, 50 mg/kg, 6 h |  | brain concentration | 3090 nM |
| O=c1[nH]c(=O)n([C@@H]2O[C@H](CO)[C@@H](O)[C@@H]2F)cc1CCCC[18F] |  | nude mice, RG2 tumour, heart | intravenous, dose not given, 2 h |  | biodistribution | 0.11 ± 0.02 %ID/g |
| CCOC(=O)N1C[C@@H]([C@H](C)CC)N[C@@H](C(C)C)C1 | shake-flask, LC-HRMS | aqueous buffer | 16 h, pH 6.8 |  | solubility | > 750 µM |
| N[C@@H]1c2ccccc2OC12CCN(c1cnc3c(N4CCCc5ncccc54)n[nH]c3n1)CC2 |  | advanced metastatic solid tumour patients, plasma | oral, 20 mg once daily, cycle 1 day 1, geometric mean |  | AUC(0-tau) | 1650 ng·h/mL |
| Cn1cc(Nc2nccc(-c3ccc4c(c3)CN(C3COC3)CC[C@H]4NC(=O)c3cn(C(C)(C)C)nn3)n2)cn1 | refers to: Monocytes count | human, clinical trial, whole blood | 50 mg twice daily, follow-up |  | percent change from baseline | -22% |
| O=C(O)CCC(=O)O.[2H]C([2H])([2H])Oc1cc(C)c2[nH]ccc2c1CN1CC[C@@H](C2CC2)C[C@H]1c1ccc(C(=O)O)cc1 | multiple ascending dose | healthy Chinese subjects | 200 mg once daily |  | subjects with allergic dermatitis TEAE | 0% |

A few entries again:
| SMILES | test | test system | conditions | scale | quantity | value |
| --- | --- | --- | --- | --- | --- | --- |
| Cc1cccc(CNC(=O)c2cn(CCNC(=O)c3ccccc3Sc3c([N+](=O)[O-])ncn3C)c3cc4c(cc3c2=O)OC(F)(F)O4)n1 |  | Sprague-Dawley rat, male, plasma | intravenous, 20 mg/kg of parent drug |  | MRT(0-inf) | 0.63 ± 0.11 h |
| Cc1c(C(=O)O)ccc2c3n(nc12)[C@@H]1[C@H](C3)N(CC2CC2)[C@@]2(C(=O)Nc3cc(Cl)ccc32)[C@H]1c1cccc(Cl)c1F |  | female BALB/c nude mice, SJSA-1 xenograft, plasma | oral, 2 mg/kg once daily |  | half-life | 17.4 h and 9 h and 36.9 h and 10.8 h and 14.1 h |
| Cc1c(-c2ccc(N3CCc4cccc(C(=O)Nc5nc6ccccc6s5)c4C3)nc2C(=O)O)cnn1CC12CC3(C)CC(C)(C1)CC(OCCNCC[C@H](O)CO)(C3)C2 |  | beagle dog, male, anaesthetised | intravenous infusion, 0.01 mg/kg/min, 120 min | reference: baseline | mean arterial pressure change | 4 mmHg |
| O=c1[nH]c(=O)n([C@@H]2O[C@H](CO)[C@@H](O)[C@@H]2F)cc1CCC[18F] |  | nude mice, RG2 tumour, skin | intravenous, dose not given, 2 h |  | biodistribution | 0.18 ± 0.15 %ID/g |
| CCc1c(-c2ccccc2)c(-c2ccccc2)nn1-c1ccccc1-c1cccc(OCC(=O)O)c1 |  | Sprague-Dawley rat | intravenous |  | Cmax/dose | 2950 kg·ng/mL/mg and 3900 kg·ng/mL/mg and 3730 kg·ng/mL/mg |
